Experimental data pooled from the literature.
A part holds a random share of what one study measured.

Set 1
Cell line: HEK-293T
Observed: pseudovirus infection
Method: FDA-approved drug library screen
Organism: VSV pseudotyped with SARS-CoV-2 spike
Concentration: 10 µM
Time: 16 h
Reference: vehicle-treated
The GFP-positive cells of `Oc1ncnc2[nH]ncc12` is reported as 99.2%.
For `CO[C@H]1/C=C/O[C@@]2(C)Oc3c(C)c(O)c4c(O)c(c5c(nc6cc(C)ccn65)c4c3C2=O)NC(=O)/C(C)=C\C=C\[C@H](C)[C@H](O)[C@@H](C)[C@@H](O)[C@@H](C)[C@H](OC(C)=O)[C@@H]1C`, the GFP-positive cells was 91.4%.
`O=C(Nc1ccc([N+](=O)[O-])cc1Cl)c1cc(Cl)ccc1O` has a GFP-positive cells of 16%.

Set 2
Target: Replicase polyprotein 1ab, main protease (rep, Severe acute respiratory syndrome coronavirus 2, UniProt P0DTD1)
Observed: enzyme activity
Concentration: 20 µM
Setting: with DTT
With `CN1Cc2ccccc2[C@@H]2c3cccc4[nH]cc(c34)C[C@H]21` the inhibition was -3.6%.
`O=c1[nH]nc(Sc2ncc([N+](=O)[O-])s2)n1-c1ccc2c(c1)OCCO2` gave an inhibition of 21.2%.
For `CS/C(N)=C(C#N)/C(C#N)=C(\N)SC`, the inhibition was -9.7%.

Set 3
Target: Replicase polyprotein 1ab, nsp13 helicase (rep, Severe acute respiratory syndrome coronavirus 2, UniProt P0DTD1)
Mode: inhibitor
Concentration: 20 µM
With `COC(=O)c1ccc(N2CCN(C)CC2)c(NC(=O)c2cccc(OC)c2)c1` the inhibition was -2.35%.
For `Fc1ccc(C(OCCN2CCN(C/C=C/c3ccccc3)CC2)c2ccc(F)cc2)cc1`, the inhibition was 2.05%.
`Cc1cc(-c2ccc(/N=N/c3ccc4c(S(=O)(=O)O)cc(S(=O)(=O)O)c(N)c4c3O)c(C)c2)ccc1/N=N/c1ccc2c(S(=O)(=O)O)cc(S(=O)(=O)O)c(N)c2c1O` has an inhibition of 103%.
`N[C@H](C(=O)O)[C@@H]1CC(Cl)=NO1` gave an inhibition of 3.94%.
The inhibition of `C[C@@H]1CC[C@@]2(NC1)O[C@H]1C[C@H]3[C@@H]4CC=C5C[C@@H](O[C@@H]6O[C@H](CO)[C@@H](O[C@@H]7O[C@@H](C)[C@H](O)[C@@H](O)[C@H]7O)[C@H](O)[C@H]6O[C@@H]6O[C@@H](C)[C@H](O)[C@@H](O)[C@H]6O)CC[C@]5(C)[C@H]4CC[C@]3(C)[C@H]1[C@@H]2C` is reported as 19.9%.
`COC(=O)C1=C(C)NC(C)=C(C(=O)OC/C=C/c2ccccc2)C1c1cccc([N+](=O)[O-])c1` (stereo not drawn) gave an inhibition of -0.4%.
The inhibition of `CN1Cc2ccccc2[C@@H]2c3cccc4[nH]cc(c34)C[C@H]21` is reported as 30%.
`CCCCc1ccc2[nH]c(NC(=O)OC)nc2c1` gave an inhibition of -0.26%.
For `Cc1ncc(-c2ccnc(Nc3ccc(S(C)(=O)=O)cc3)n2)n1C(C)C`, the inhibition was 9.5%.

Other studies, line by line
With `CCCCN(CCCC)CCCNC(=O)c1cc(-c2ccc(Cl)s2)nc2ccccc12` the efficacy was 81.3% (SARS-CoV-2; cytopathic effect; USA_WA1/2020; round 2, 5-point).
With `CC[C@H](C)[C@H](NC(=O)[C@H](CC(C)C)NC(=O)[C@H](Cc1c[nH]c2ccccc12)NC(=O)[C@H](CCC(N)=O)NC(=O)[C@@H](NC(=O)[C@H](Cc1ccccc1)NC(=O)[C@H](C)NC(=O)[C@H](CCCCNC(=O)COCCOCCNC(=O)COCCOCCNC(=O)CC[C@H](NC(=O)CCCCCCCCCCCCCCCCCCC(=O)O)C(=O)O)NC(=O)[C@H](CCC(N)=O)NC(=O)[C@H](C)NC(=O)[C@@H](NC(=O)[C@H](CCCCN)NC(=O)[C@H](CC(=O)O)NC(=O)[C@H](CC(C)C)NC(=O)C(C)(C)NC(=O)[C@@H](NC(=O)[C@H](CO)NC(=O)[C@H](Cc1ccc(O)cc1)NC(=O)[C@H](CC(=O)O)NC(=O)[C@H](CO)NC(=O)[C@@H](NC(=O)[C@H](Cc1ccccc1)NC(=O)[C@@H](NC(=O)CNC(=O)[C@H](CCC(=O)O)NC(=O)C(C)(C)NC(=O)[C@@H](N)Cc1ccc(O)cc1)[C@@H](C)O)[C@@H](C)O)[C@@H](C)CC)[C@@H](C)CC)C(C)C)C(=O)N[C@@H](C)C(=O)NCC(=O)NCC(=O)N1CCC[C@H]1C(=O)N[C@@H](CO)C(=O)N[C@@H](CO)C(=O)NCC(=O)N[C@@H](C)C(=O)N1CCC[C@H]1C(=O)N1CCC[C@H]1C(=O)N1CCC[C@H]1C(=O)N[C@@H](CO)C(N)=O` the Cmax was 614 ng/mL (patients with type 2 diabetes, plasma; subcutaneous, 5 mg, day 22, proof of concept, geometric mean).
With `Clc1ccccc1C1(c2ccnc(-c3ccccc3)n2)CCNCC1` the efficacy was 69.6% (SARS-CoV-2; cytopathic effect; USA_WA1/2020; retest, 8-point, duplicates).

Some of these lines once more (set 1):
The GFP-positive cells of `Oc1ncnc2[nH]ncc12` is reported as 99.2%.
